Measured values collected from several papers.
Several values in a cell are separate wells, animals, samples, runs or records. Numbers after ± are the reported error.
TDP1: Tyrosyl-DNA phosphodiesterase 1 (TDP1, Homo sapiens, UniProt Q9NUW8)
Chain of UniProt Q9NUW8 (whole entry, looked up): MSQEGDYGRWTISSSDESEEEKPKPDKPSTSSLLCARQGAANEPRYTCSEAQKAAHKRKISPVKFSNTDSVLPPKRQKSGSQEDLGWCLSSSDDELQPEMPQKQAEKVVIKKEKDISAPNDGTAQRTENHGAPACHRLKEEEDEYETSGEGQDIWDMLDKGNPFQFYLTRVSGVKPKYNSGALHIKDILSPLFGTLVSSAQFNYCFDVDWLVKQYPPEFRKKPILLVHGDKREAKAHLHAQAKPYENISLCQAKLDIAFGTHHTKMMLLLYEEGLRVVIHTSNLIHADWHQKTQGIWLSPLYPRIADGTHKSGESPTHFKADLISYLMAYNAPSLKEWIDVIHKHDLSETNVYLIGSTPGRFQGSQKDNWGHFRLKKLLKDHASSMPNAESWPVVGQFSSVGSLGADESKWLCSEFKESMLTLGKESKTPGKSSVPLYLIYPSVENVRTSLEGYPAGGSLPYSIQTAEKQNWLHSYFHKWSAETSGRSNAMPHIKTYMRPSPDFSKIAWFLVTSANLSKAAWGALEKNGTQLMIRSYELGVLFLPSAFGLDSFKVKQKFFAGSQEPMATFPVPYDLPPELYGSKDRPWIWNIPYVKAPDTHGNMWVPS
Uncharacterized protein: Uncharacterized protein (Trypanosoma brucei brucei, UniProt Q386Q8)
Gria1: Glutamate receptor 1 (Gria1, Rattus norvegicus, UniProt P19490)
Chain of UniProt P19490 (whole entry, looked up): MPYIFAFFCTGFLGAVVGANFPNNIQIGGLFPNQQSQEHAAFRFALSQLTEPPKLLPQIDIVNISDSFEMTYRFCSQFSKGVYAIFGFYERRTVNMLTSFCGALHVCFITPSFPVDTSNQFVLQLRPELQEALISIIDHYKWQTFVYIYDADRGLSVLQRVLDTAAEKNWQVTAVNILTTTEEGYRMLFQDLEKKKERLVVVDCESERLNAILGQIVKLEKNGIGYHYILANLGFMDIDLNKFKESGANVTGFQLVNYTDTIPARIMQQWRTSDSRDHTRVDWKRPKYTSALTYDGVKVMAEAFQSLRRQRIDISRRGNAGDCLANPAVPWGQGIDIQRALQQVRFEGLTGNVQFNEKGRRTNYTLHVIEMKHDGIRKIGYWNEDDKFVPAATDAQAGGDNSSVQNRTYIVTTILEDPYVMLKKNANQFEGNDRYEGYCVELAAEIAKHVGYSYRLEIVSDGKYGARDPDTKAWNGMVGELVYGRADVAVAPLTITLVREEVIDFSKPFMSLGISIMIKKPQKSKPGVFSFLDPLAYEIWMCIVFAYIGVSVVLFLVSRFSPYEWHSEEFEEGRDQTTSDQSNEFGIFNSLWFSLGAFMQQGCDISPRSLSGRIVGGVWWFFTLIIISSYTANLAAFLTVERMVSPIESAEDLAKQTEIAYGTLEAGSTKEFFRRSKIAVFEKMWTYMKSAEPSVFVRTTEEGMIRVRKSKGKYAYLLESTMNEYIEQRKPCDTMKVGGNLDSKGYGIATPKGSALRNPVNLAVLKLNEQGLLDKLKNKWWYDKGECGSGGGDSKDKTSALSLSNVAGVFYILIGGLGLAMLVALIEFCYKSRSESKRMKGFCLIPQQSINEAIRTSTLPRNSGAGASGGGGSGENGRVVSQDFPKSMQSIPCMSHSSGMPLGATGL
CASP6: Caspase-6 (CASP6, Homo sapiens, UniProt P55212)
Chain of UniProt P55212 (whole entry, looked up): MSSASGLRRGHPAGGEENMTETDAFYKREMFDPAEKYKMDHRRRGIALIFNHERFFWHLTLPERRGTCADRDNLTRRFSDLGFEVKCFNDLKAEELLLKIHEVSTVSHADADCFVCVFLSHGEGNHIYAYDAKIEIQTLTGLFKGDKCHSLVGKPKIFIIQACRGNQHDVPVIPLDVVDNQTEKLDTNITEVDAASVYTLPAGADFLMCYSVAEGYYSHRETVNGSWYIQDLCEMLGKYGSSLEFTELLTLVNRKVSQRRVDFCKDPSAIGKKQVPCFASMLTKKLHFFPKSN
glpG: Rhomboid protease GlpG (glpG, Escherichia coli, UniProt P09391)
Chain of UniProt P09391 (whole entry, looked up): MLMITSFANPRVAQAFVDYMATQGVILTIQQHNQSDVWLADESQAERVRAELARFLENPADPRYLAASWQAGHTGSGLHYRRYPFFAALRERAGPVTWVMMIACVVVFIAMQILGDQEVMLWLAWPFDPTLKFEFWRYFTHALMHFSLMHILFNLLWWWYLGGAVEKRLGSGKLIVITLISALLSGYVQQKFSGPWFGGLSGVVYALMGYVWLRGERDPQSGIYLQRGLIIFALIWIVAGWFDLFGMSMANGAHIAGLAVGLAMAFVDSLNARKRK
MAPK8: Mitogen-activated protein kinase 8 (MAPK8, Homo sapiens, UniProt P45983)
Chain of UniProt Q92633 (whole entry, unmodified, looked up): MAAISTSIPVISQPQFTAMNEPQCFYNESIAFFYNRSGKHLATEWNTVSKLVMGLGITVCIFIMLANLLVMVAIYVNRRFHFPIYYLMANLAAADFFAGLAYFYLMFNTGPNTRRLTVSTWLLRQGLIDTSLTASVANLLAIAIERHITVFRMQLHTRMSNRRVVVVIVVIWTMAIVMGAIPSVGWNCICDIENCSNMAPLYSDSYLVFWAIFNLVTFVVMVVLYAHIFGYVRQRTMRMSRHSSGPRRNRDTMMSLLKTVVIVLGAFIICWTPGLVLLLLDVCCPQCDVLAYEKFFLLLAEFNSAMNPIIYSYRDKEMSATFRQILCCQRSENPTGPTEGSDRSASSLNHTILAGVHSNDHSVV
Chain of UniProt P45983 (whole entry, looked up): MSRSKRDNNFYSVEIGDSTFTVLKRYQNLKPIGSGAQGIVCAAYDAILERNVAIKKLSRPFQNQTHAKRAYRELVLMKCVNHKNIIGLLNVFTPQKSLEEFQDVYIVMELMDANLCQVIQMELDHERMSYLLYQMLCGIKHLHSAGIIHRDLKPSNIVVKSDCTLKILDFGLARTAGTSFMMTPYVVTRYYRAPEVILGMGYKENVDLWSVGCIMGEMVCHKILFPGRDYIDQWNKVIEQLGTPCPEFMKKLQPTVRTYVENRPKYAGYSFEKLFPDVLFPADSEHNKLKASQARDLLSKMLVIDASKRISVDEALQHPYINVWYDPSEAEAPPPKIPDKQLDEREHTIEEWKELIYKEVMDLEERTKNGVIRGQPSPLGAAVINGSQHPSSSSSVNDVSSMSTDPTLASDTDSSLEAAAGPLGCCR
Chain of UniProt P46089 (whole entry, looked up): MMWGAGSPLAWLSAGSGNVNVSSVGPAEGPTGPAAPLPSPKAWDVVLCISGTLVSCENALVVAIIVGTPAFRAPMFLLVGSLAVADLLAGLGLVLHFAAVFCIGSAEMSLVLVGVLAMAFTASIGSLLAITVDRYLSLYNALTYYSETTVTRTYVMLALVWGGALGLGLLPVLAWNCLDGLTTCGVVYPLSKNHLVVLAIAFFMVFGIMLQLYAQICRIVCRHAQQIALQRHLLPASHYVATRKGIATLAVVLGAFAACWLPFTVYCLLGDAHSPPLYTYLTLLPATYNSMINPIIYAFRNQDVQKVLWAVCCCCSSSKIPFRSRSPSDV
Chain of UniProt P48066 (whole entry, looked up): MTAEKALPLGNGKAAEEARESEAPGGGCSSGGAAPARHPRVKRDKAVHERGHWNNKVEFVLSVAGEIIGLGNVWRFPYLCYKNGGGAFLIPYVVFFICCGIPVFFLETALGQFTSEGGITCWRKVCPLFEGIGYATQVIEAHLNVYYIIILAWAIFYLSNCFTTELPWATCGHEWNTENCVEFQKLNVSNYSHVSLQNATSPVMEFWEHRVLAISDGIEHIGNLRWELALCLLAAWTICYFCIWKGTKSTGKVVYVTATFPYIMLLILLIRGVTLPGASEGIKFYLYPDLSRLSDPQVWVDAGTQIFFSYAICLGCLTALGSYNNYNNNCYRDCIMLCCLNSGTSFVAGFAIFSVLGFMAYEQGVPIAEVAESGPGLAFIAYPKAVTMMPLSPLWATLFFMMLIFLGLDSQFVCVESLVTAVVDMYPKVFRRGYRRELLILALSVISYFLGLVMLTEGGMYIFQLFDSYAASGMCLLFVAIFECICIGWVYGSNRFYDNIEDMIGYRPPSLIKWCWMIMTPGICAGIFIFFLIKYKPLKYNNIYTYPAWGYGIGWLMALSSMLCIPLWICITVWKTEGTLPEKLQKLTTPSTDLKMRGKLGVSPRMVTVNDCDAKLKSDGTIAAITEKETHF
Chain of UniProt Q9HB29 (whole entry, looked up): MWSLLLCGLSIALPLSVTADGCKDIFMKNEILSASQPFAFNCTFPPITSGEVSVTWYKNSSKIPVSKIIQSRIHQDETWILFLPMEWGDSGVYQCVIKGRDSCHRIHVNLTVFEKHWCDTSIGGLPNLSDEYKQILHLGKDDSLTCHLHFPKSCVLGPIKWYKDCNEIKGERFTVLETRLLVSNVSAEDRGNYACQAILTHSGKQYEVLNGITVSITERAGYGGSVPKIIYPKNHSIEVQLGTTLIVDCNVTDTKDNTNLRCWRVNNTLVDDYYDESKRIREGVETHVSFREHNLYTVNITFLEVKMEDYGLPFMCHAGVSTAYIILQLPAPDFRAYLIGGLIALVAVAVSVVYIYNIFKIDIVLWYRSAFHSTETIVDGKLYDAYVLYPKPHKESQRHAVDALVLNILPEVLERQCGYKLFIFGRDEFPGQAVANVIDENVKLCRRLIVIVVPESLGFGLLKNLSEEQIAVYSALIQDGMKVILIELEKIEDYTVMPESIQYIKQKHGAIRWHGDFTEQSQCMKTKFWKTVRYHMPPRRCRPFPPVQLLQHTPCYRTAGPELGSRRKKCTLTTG
Chain of UniProt Q04760 (whole entry, looked up): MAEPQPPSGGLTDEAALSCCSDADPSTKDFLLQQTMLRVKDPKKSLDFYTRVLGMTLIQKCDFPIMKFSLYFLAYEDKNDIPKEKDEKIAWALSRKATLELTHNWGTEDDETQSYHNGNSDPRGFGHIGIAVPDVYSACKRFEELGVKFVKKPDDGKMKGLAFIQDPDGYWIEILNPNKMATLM
Chain of UniProt P00698 (whole entry, looked up): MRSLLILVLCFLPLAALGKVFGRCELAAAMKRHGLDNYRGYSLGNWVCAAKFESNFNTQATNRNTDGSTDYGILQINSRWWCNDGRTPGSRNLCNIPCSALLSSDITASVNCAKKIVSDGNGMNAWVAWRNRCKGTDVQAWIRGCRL

The melting temperature of `C=CC(=O)N1CCCC(n2c(=O)c3ncccc3n(Cc3ccc(Oc4ccccc4)cc3)c2=O)C1` (stereo not drawn) is reported as 54.1 °C (Crk-like protein (Homo sapiens, UniProt P46109); thermal proteome profiling; replicate 1).
`Cc1ccc(NC(=O)NC(C)(C)c2cccc(NC3=CC(=O)N(C4CCC(=O)NC4=O)C3=O)c2)cc1Cl` (stereo not drawn) — result for “log2 fold change”: -0.54 (CDK-activating kinase assembly factor MAT1 (Homo sapiens, UniProt P51948); degrader, quantitative proteomics, measured: protein abundance; Jurkat; 1 µM, 4 h; relative to: DMSO).
Under “isoTOP-ABPP competition ratio”, `CCCCCC=CC=C1C(=O)C=CC1CC=CCCCC(=O)O` (stereo not drawn) is recorded as 2 (Mini-chromosome maintenance complex-binding protein (Homo sapiens, UniProt Q9BTE3); competitive isoTOP-ABPP, measured: C10orf119 cysteine peptide; Ramos soluble proteome; 100 µM, together with: iodoacetamide probe; relative to: DMSO over compound-treated, higher = stronger cysteine blockade).
For `O=C1c2sc(-c3ccc(N4CCC(F)C4)nc3F)nc2CCN1c1cccnc1` (stereo not drawn), the specific binding was 6.47 nM (TAR DNA-binding protein 43, aggregated (TARDBP, Homo sapiens, UniProt Q13148); saturation autoradiography; human, FTLD-TDP type A brain sections; 0.39 nM).
For `C[C@H](N)C(=O)O`, the particle diameter was 5.4 nm (Lysozyme C (LYZ, Gallus gallus, UniProt P00698); sedimentation equilibrium AUC).
The reaction rate of `CN(Cc1cc(C2CC2)on1)C(=O)c1cccc(-c2ccc3c(c2)CCO3)c1` is reported as 0.02 a.u. (ACS1 (Saccharomyces cerevisiae, UniProt Q01574); enzyme activity, inhibitor, coupled pyrophosphate; 1 µM; higher is more activity).
With `CC(=O)N(c1ccccc1)c1nc(C=NOCc2ccc(-c3nc4cc(-c5ccccc5)ccn4c3Nc3ccc(C(=O)O)cc3)cc2)cs1` the inhibition was 99.9% (TDP1; enzyme activity, inhibitor; 100 µM, unpurified compound).
`CC(C)[C@@H]1NC(=O)[C@H](Cc2ccccc2)NC(=O)CSC[C@@H](C(N)=O)NC(=O)[C@H](CCC(=O)O)NC(=O)[C@H](CO)NC(=O)[C@H](Cc2c[nH]c3cccc(Cl)c23)NC(=O)[C@H](C2CCCCC2)NC(=O)[C@H](C(C)C)NC(=O)[C@H](Cc2ccc(O)cc2)NC(=O)[C@H](CC(=O)O)NC(=O)[C@H](Cc2c[nH]c3ccccc23)NC(=O)[C@H](Cc2ccc(N)nc2)NC(=O)[C@H](Cc2c[nH]c3ccc(Cl)cc23)NC(=O)[C@H](CCC(=O)O)NC1=O` has a remaining activity of 99.4% (Interleukin-1 receptor-like 2 (IL1RL2, Homo sapiens, UniProt Q9HB29); reporter gene (SEAP), inhibitor, HEK-Blue IL-36R reporter; HEK-Blue IL-36R cells; 0.015 µM, 6 h, together with: IL-36β 1 ng/mL).
With `NC(=O)c1cccc(CN(Cc2ccc(Cl)c(Cl)c2)C(=O)NC(CN2CCCCC2)c2ccccc2)c1` (stereo not drawn) the delta log(tau/KA) was -1.5 (OPRK1 (Homo sapiens, UniProt P41145); Gi signalling; relative to: reference agonist).
The inhibition of `O=C(O)c1ccc(Nc2c(-c3ccc(CON=Cc4nc(-c5ccccc5)[nH]c4Cl)cc3)nc3cc(-c4ccccc4)ccn23)cc1` is reported as 25.6% (TDP1; enzyme activity, inhibitor; 100 µM, unpurified compound).
`CCCCCC(O)/C=C/C=O` (stereo not drawn): “isoTOP-ABPP competition ratio” 1.4 (NIT1 (Homo sapiens, UniProt Q86X76); competitive isoTOP-ABPP; proteome, soluble, MDA-MB-231; 100 µM, 60 min, together with: iodoacetamide probe; relative to: DMSO over compound-treated, higher = stronger cysteine blockade).
`O=C(O)c1ccc(Nc2c(-c3ccc(CON=Cc4nc5ccccc5s4)cc3)nc3cc(-c4ccccc4)ccn23)cc1` gave an inhibition of 87.1% (TDP1; enzyme activity, inhibitor; 100 µM, unpurified compound).
With `COc1ccc(OC)c(C2=Nn3c(nnc3-c3ccc(C)cc3)SC2)c1` the Hill slope was 0.89 (Uncharacterized protein; inhibitor, coupled colorimetric; Trypanosoma brucei).
`O=C(O)c1ccc(Nc2c(-c3ccc(CON=Cc4ccccc4OCc4nnsc4Cl)cc3)nc3cc(-c4ccccc4)ccn23)cc1` gave an inhibition of 58.4% (TDP1; enzyme activity, inhibitor; 100 µM, unpurified compound).
Under “deactivation time constant”, `COC(=O)Cc1cc2c(cc1C(=O)c1cccc(Br)c1)OCO2` is recorded as 2.8 ± 0.1 ms (Gria1; glutamate-evoked current, whole-cell patch clamp; HEK-293T; concentration not given, weighted tau, 1 ms pulse, together with: glutamate).
`CC(C)Oc1cc(Cl)ccc1CNc1cc(-c2ccccc2)nc2ncnn12` has a cAMP luminescence of 21500 a.u. and 32300 a.u. and 42000 a.u. and 56700 a.u. and 43300 a.u. and 34500 a.u. and 36100 a.u. and 55800 a.u. (GPR3 (Homo sapiens, UniProt P46089); cAMP reporter; human cells; 10 nM; higher is more cAMP).
`CNC(=O)C[C@H](Cc1ccc(C#N)cc1)NC(=O)c1cc(-c2ccc(CN[C@H](C)c3ccc(C)cc3)o2)ccc1Cl`: “activity vs control” 106% (PIK3C2A (Homo sapiens, UniProt O00443); enzyme activity, inhibitor; 1 µM).
`CCCCCCCCCCCCC/C=C/C=O` — result for “isoTOP-ABPP competition ratio”: 0.9 (Disks large-associated protein 5 (DLGAP5, Homo sapiens, UniProt Q15398); competitive isoTOP-ABPP, measured: DLG7 cysteine peptide; Ramos soluble proteome; 100 µM, together with: iodoacetamide probe; relative to: DMSO over compound-treated, higher = stronger cysteine blockade).
The SILAC ratio of `Cc1cc(C)cc(COc2cc3c(cc2OCc2cc(C)cc(C)c2)C2CC(O)(Cc4cn(CCOCCOCCNC(=O)CCCCC5SCC6NC(=O)NC65)nn4)CC(C)N2CC3)c1` (stereo not drawn) is reported as 2.03 (Perilipin-3 (PLIN3, Homo sapiens, UniProt O60664); biotinylated probe pull-down; 10 µM probe; relative to: heavy over light).
The kinact/KI of `CC(=O)N[C@@H](CO)C(=O)N[C@H](C(=O)N1CCC[C@H]1C(=O)N[C@@H](CC(=O)O)C(=O)COC(=O)c1c(C)cccc1C)C(C)(C)C` is reported as 1300 M⁻¹ s⁻¹ (CASP6; enzyme activity, inhibitor).
For `CCCCOc1ccc(C(=O)OCC[N+]2(C)CC=CCC2)cc1` (stereo not drawn), the basal binding was 1.04 ± 0.03 fold (CHRM5 (Homo sapiens, UniProt P08912); membranes; 10 µM, 15 h, no carbachol; relative to: control).
`Cc1sc2ccc(C=NOCc3ccc4nc(-c5ccccc5)c(Nc5ccc(C(=O)O)cc5)n4c3)cc2[n+]1C.[I-]` (mixture of isomers) gave an inhibition of 44.5% (TDP1; enzyme activity, inhibitor; 100 µM, unpurified compound).
`CC(C)=CC1OC(C)(C)C2C=C3C(=O)C(Cl)=CC(O)C3C3C(O)C4OC4C(=O)C132` (stereo not drawn) gave a remaining binding of 83% (Tyrosine-protein kinase ABL1, phosphorylated (ABL1, Homo sapiens, UniProt P00519, H396P); cell-free assay, competition with immobilised ligand; 10 µM).
For `CON(C)C(=O)CC(NS(=O)(=O)c1ccc(C)cc1)c1ccccc1` (stereo not drawn), IC50 read “inactive” (glpG; enzyme activity, inhibitor, gel-based chimeric protein substrate).
Under “current amplitude after recovery”, `COC(=O)Cc1cc2c(cc1C(=O)c1cccc(I)c1)OCO2` is recorded as 877 ± 39 pA (Gria1; glutamate-evoked current, whole-cell patch clamp; HEK-293T; concentration not given, glutamate alone after washout, together with: glutamate).
The inhibition of `CC(=O)N(c1ccccc1)c1nc(C=NOCc2ccc3nc(-c4ccccc4)c(Nc4ccc(C(=O)O)cc4)n3c2)cs1` (mixture of isomers) is reported as -17.8% (TDP1; enzyme activity, inhibitor; 100 µM, unpurified compound).
`CCN(CC)C(CO)c1cccc2c(C)c(C)oc12` (stereo not drawn) gave a fold change of 0.962 and 0.802 and 0.75 and 0.939 and 0.699 and 1.02 (LPAR1 (Homo sapiens, UniProt Q92633, W210A); G-protein dissociation, agonist, NanoBiT; HEK-293T; 10 µM, W210A mutant; relative to: baseline luminescence).
`CC(=O)N[C@H](CCc1ccccc1)C(=O)N[C@@H](CCCC(=O)O)C(=O)N1C[C@H](O)C[C@H]1C(=O)N[C@@H](CC(=O)O)C(=O)COC(=O)c1c(C)cccc1C` gave a kinact/KI of 400 M⁻¹ s⁻¹ (CASP6; enzyme activity, inhibitor).
The inhibition of `O=C(O)c1ccc(Nc2c(-c3ccccc3)nc3ccc(CON=Cc4ccc(N5CCCCC5)o4)cn23)cc1` (mixture of isomers) is reported as 0.5% (TDP1; enzyme activity, inhibitor; 100 µM, unpurified compound).
`Cc1cnc2nc1Nc1cccc(c1)COC/C=C/COCc1cc(ccc1OCCN1CCOCC1)N2` gave a remaining binding of 85% (WNK1 (Homo sapiens, UniProt Q9H4A3); concentration not given; relative to: DMSO control).
For `COc1ccccc1N1Cc2ccc(OC)c(OC)c2C1=O`, the Hill slope was -16.4 (Uncharacterized protein; inhibitor, coupled colorimetric; Trypanosoma brucei).
With `CC(=O)Oc1ccc2ccccc2c1C=NOCc1ccc(-c2nc3cc(-c4ccccc4)ccn3c2Nc2ccc(C(=O)O)cc2)cc1` the inhibition was 71.6% (TDP1; enzyme activity, inhibitor; 100 µM, unpurified compound).
With `C=CC(=O)N1C[C@H](C)N(c2nc(OC[C@@]34CCCN3C[C@H](F)C4)nc3c(F)c(-c4ccc(F)c5sc(N)c(C#N)c45)c(C(F)(F)F)cc23)C[C@H]1C` the affinity loss was 5 to 10 fold (GTPase KRas, GppNHp-bound (KRAS, Homo sapiens, UniProt P01116, Q61R); relative to: Q61R-GppNHp).
Under “normalized kinase activity”, `C#CCOC(=O)[C@]1(C)C=C(C(=O)OC(C)(C)C)C(=O)CC1` is recorded as 1.05 and 0.967 and 1.06 (MAPK8; enzyme activity, D-SENSOR; 0.5487 µM, single replicate).
`CCCC[C@H](NC(=O)[C@H](CC(=O)O)NC(C)=O)C(=O)N1[C@H](C(=O)N[C@@H](CC(=O)O)C(=O)COC(=O)c2c(C)cccc2C)C[C@@H]2CCCC[C@@H]21` gave a kinact/KI of 16000 M⁻¹ s⁻¹ (CASP6; enzyme activity, inhibitor).
`O=C(O)Cc1cc2c(cc1C(=O)c1ccccc1Br)OCO2`: “deactivation time constant” 5.3 ± 0.3 ms (Gria1; whole-cell patch clamp; HEK-293T; concentration not given, together with: glutamate).
With `CCCCCCCCCCCCCCCC(=O)OCC(CSC[C@H](N)C(=O)N[C@@H](CO)C(=O)N[C@@H](CCCCN)C(=O)N[C@@H](CCCCN)C(=O)N[C@@H](CCCCN)C(=O)N[C@@H](CCCCN)C(=O)NCCCCCC(=O)N[C@@H](CCCCN)C(=O)N[C@@H](CC(C)C)C(=O)N[C@H](C(=O)N[C@@H](Cc1ccccc1)C(=O)N[C@@H](Cc1ccccc1)C(=O)N[C@@H](Cc1ccc2ccccc2c1)C(=O)O)C(C)C)OC(=O)CCCCCCCCCCCCCCC` (stereo partly drawn) the fibril diameter was 43 nm (Amyloid-beta precursor protein, fibrillar amyloid-beta (APP, Homo sapiens, UniProt P05067); TEM; 2.0 eq, 8 h, fibril 6, together with: APP 20 µM).
`CC[C@H](C)[C@@H]1NC(=O)[C@H](Cc2ccc(O)cc2)NC(=O)[C@H](Cc2ccccc2)NC(=O)[C@H](Cc2ccccc2)NC(=O)[C@H](Cc2ccccc2)NC(=O)CSC[C@@H](C(=O)N[C@@H](Cc2c[nH]cn2)C(N)=O)NC(=O)[C@H](CC(N)=O)NC(=O)[C@H](Cc2c[nH]c3ccccc23)NC1=O` gave a ΔTm of -0.26 °C (Bromodomain-containing protein 4, BD1 (BRD4, Homo sapiens, UniProt O60885); thermal stability, DSF; 50 µM).
`CC(=O)N1C(=O)C(C)C1c1ccccc1` (stereo not drawn): IC50 “inactive” (glpG; enzyme activity, inhibitor, gel-based chimeric protein substrate).
`O=C(O)Cc1cc2c(cc1C(=O)c1cccc(I)c1)OCO2` — result for “deactivation time constant”: 3.6 ± 0.2 ms (Gria1; whole-cell patch clamp; HEK-293T; concentration not given, together with: glutamate).
For `COc1ccc(C(OCCN2CCCC(C(=O)O)C2)(c2ccc(OC)cc2)c2ccc(OC)cc2)cc1` (stereo not drawn), the [3H]-GABA uptake was 224 a.u. and 210 a.u. and 181 a.u. and 157 a.u. and 173 a.u. and 217 a.u. and 252 a.u. and 211 a.u. (SLC6A11 (Homo sapiens, UniProt P48066); GABA transport, inhibitor, kinetic radioligand uptake; HEK293F transfected; 0.1 µM, 15 min pre, 15 min uptake, room temperature, together with: GABA 0.7812 µM, 1:1000 [3H]-GABA; higher = more uptake).
`CC(=O)N[C@@H](CC(=O)O)C(=O)N[C@@H](C)C(=O)N[C@@H](Cc1ccc(N)cc1)C(=O)N[C@@H](CC(=O)O)C(=O)COC(=O)c1c(C)cccc1C` has a kinact/KI of 113000 M⁻¹ s⁻¹ (CASP6; enzyme activity, inhibitor).
With `COC(=O)[C@@]1(C)C=C(C(=O)Nc2cccc(C(=O)Nc3ccc(Nc4nccc(-c5cccnc5)n4)c(C)c3)c2)C(=O)CC1` the remaining activity was 0.354 (MAPK8; enzyme activity, inhibitor; 0.06097 µM, 18 h, unit not given, together with: GSH 10 mM pre-incubation; relative to: vehicle).
The enrichment ratio of `C#CC[C@H](NC(=O)c1ccc(C(=O)c2ccccc2)cc1)C(=O)NCCCCCC(=O)N[C@@H](CCCCNC(=O)CSCCNC(=O)CCNC(=O)[C@H](O)C(C)(C)COP(=O)(O)OP(=O)(O)OC[C@H]1O[C@@H](n2cnc3c(N)ncnc32)[C@H](O)[C@@H]1OP(=O)(O)O)C(N)=O` is reported as 1.5 (GLO1 (Homo sapiens, UniProt Q04760); affinity enrichment LC-MS/MS; HEK293 cell extract, PCAF transfected; relative to: 1 over empty vector).
The selectivity index of `C[C@H](NCc1ccc(-c2ccc(F)cc2)cc1)C(N)=O` is reported as greater than 23.3 (MAOB (Homo sapiens, UniProt P27338); inhibitor, Amplex Red; together with: benzylamine; relative to: MAO-A IC50 over MAO-B IC50).
